Measurements pooled from the literature.
Lines come from different studies, so protocols differ. “And” joins repeats or separate records; there may be more than shown. Numbers after ± are the reported error.
Chain of UniProt Q5T4S7 (whole entry, looked up): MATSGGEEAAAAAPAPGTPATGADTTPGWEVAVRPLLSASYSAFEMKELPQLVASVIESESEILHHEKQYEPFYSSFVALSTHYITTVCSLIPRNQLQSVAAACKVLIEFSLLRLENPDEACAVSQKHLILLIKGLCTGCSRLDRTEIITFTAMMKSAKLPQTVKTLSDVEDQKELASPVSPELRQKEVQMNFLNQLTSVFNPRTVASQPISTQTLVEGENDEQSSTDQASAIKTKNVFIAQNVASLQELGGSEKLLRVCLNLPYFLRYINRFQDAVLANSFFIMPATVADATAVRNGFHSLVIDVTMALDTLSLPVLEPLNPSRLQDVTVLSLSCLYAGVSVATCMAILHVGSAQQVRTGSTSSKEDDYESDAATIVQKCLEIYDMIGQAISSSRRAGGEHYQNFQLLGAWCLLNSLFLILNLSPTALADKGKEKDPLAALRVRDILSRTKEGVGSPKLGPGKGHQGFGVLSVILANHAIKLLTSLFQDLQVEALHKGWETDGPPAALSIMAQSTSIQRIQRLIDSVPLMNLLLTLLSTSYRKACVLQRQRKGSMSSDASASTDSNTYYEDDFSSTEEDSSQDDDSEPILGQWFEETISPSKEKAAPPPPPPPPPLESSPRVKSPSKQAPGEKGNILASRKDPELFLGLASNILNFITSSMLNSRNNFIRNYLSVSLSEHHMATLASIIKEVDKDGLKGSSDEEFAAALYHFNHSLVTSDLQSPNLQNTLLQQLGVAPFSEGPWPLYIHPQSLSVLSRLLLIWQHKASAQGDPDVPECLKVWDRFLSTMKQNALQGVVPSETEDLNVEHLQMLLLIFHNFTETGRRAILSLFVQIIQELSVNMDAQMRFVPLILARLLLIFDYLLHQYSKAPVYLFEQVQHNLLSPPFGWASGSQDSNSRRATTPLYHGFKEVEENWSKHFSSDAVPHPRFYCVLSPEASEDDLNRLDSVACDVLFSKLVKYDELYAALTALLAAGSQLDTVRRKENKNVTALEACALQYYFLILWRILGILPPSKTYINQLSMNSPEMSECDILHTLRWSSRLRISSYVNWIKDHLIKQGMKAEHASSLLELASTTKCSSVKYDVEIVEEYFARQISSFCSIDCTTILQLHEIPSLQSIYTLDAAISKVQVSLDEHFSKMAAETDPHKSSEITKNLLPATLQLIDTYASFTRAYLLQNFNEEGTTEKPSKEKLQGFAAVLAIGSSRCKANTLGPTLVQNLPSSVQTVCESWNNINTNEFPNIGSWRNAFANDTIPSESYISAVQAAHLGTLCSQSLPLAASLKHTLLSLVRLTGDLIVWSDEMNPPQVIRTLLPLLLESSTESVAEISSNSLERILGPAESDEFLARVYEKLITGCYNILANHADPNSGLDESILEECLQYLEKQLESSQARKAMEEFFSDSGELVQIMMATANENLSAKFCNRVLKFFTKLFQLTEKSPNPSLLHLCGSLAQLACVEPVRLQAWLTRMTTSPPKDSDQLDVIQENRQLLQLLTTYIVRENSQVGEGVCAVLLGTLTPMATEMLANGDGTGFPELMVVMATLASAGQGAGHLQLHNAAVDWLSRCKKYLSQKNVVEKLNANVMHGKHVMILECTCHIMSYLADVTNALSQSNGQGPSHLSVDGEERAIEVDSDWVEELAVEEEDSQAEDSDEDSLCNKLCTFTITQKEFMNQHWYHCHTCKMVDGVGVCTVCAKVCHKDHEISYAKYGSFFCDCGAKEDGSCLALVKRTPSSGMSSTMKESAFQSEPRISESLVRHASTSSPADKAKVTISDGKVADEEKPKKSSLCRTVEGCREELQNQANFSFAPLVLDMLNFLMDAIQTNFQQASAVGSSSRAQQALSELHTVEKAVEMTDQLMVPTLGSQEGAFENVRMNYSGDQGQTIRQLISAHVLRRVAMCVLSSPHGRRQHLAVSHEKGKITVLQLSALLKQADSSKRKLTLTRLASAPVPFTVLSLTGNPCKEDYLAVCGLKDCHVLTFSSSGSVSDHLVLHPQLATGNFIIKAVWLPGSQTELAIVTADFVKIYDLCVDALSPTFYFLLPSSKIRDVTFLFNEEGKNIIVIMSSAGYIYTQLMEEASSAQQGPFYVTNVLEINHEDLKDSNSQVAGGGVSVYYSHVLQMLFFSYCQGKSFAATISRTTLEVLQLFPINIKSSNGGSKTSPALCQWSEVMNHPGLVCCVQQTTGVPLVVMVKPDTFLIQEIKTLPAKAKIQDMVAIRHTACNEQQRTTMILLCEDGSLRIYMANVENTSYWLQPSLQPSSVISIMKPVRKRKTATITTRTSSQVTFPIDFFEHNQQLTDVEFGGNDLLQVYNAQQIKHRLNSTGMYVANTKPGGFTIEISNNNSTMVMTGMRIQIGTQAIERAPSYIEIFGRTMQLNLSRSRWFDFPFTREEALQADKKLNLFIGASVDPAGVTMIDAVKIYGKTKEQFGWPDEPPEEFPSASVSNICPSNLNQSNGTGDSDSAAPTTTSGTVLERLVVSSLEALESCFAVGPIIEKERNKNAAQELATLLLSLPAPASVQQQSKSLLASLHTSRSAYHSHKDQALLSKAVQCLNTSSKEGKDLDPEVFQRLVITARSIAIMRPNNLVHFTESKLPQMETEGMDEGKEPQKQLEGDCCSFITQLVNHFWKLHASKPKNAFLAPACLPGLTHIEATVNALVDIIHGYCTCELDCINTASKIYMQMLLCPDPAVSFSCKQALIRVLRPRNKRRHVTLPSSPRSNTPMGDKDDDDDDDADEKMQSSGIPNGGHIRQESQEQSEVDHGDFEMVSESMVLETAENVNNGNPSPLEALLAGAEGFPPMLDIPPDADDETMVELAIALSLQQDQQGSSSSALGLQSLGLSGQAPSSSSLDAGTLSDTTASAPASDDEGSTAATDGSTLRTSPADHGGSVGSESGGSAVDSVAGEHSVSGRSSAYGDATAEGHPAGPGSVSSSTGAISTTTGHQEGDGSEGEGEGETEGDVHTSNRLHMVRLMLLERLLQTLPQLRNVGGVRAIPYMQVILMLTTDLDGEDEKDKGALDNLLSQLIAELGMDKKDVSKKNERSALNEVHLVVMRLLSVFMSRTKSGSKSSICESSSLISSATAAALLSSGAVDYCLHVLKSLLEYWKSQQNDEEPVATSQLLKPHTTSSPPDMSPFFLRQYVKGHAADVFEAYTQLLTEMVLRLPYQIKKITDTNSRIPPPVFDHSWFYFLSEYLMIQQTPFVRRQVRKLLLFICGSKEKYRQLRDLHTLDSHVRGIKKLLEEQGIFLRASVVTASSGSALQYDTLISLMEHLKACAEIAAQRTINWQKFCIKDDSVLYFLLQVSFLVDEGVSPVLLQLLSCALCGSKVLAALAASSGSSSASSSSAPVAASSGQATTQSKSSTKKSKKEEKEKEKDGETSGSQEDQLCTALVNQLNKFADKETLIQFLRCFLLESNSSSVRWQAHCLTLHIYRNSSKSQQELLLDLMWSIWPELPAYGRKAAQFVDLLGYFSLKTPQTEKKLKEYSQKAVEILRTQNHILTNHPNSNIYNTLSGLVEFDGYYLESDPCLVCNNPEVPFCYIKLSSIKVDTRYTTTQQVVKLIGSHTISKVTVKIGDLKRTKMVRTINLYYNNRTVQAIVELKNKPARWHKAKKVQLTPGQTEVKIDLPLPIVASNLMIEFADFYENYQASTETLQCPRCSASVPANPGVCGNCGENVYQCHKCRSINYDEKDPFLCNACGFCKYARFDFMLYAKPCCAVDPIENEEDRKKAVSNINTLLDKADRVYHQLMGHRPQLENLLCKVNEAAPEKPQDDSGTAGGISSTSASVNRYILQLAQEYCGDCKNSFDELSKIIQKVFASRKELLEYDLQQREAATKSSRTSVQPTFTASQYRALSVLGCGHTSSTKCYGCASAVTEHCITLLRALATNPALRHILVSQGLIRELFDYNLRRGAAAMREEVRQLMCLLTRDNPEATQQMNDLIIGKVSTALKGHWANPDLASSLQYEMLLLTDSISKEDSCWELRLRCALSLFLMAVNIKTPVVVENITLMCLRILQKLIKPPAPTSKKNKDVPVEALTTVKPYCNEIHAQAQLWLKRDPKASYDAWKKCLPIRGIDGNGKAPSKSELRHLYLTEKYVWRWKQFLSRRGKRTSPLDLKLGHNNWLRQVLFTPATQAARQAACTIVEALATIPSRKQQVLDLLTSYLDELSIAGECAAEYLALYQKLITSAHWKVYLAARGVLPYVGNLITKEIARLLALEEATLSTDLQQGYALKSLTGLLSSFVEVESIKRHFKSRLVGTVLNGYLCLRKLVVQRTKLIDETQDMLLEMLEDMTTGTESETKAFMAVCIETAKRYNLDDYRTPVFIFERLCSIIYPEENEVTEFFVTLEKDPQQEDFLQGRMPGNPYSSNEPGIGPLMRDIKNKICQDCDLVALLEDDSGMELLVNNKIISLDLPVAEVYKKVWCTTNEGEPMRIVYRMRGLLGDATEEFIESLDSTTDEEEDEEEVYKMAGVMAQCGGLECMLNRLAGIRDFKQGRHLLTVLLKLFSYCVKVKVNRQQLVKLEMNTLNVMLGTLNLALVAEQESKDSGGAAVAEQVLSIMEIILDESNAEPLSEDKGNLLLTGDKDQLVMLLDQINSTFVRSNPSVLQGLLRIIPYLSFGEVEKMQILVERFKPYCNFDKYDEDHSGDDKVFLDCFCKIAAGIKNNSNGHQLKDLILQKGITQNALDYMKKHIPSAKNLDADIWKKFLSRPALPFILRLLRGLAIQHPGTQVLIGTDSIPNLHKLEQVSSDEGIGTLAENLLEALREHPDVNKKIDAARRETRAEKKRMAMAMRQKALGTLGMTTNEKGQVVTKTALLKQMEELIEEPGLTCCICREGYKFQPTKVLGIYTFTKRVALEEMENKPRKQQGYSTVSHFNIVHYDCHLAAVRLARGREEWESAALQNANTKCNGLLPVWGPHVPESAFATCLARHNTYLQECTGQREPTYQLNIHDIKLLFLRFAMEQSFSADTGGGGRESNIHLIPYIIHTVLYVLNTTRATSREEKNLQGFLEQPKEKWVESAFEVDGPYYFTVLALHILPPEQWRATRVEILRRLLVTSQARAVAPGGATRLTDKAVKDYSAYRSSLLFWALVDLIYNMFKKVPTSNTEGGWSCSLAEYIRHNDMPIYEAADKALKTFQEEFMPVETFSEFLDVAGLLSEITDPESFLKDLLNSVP

Brc1ccc(Oc2cc(Br)c(Br)cc2Br)c(Br)c1  final permeate concentration (ultrafiltration; cow milk whey; 2000 nM nominal in whole milk): 7.57 nM
CCN(CCO)CCCC(C)Nc1ccnc2cc(Cl)ccc12 (centres unmarked)  patients with adverse event (refers to: Hypokalemia grade 1; newly diagnosed glioblastoma patients; oral, 400 mg/dose, with radiotherapy and temozolomide): 14%
CCc1ccc(CC/C=C/c2ccc3c(c2)C(=O)CC3)cc1  CK serum activity (Sprague-Dawley rat, male; oral, 120 mg/kg/day, 14 days): 489 U/L
C[C@@H]1NC(=O)[C@H](CCCCNC(=O)CO/N=C/C(=O)NCCCC[C@@H]2NC(=O)[C@@H](Cc3ccccc3)NC(=O)[C@H](CC(=O)O)NC(=O)CNC(=O)[C@H](CCCNC(=N)N)NC2=O)NC(=O)CNC(=O)[C@@H]2CCCN2C(=O)[C@H](CCCCNC(=O)CO/N=C/C(=O)NCCCC[C@@H]2NC(=O)[C@@H](Cc3ccccc3)NC(=O)[C@H](CC(=O)O)NC(=O)CNC(=O)[C@H](CCCNC(=N)N)NC2=O)NC(=O)[C@H](CCCCNC(=O)[C@H](CCCCN)NC(=O)[C@H](Cc2ccccc2)NC(=O)CNC(=O)CN2CCCNCCNCCCNCC2)NC(=O)[C@H](CCCCNC(=O)CO/N=C/C(=O)NCCCC[C@@H]2NC(=O)[C@@H](Cc3ccccc3)NC(=O)[C@H](CC(=O)O)NC(=O)CNC(=O)[C@H](CCCNC(=N)N)NC2=O)NC(=O)CNC(=O)[C@@H]2CCCN2C(=O)[C@H](CCCCNC(=O)CO/N=C/C(=O)NCCCC[C@@H]2NC(=O)[C@@H](Cc3ccccc3)NC(=O)[C@H](CC(=O)O)NC(=O)CNC(=O)[C@H](CCCNC(=N)N)NC2=O)NC1=O [copper-64 labelled]  tissue uptake (normal mice, liver; intravenous, 0.74 MBq, 3 h post-injection): 38.1 ± 3.54 %ID/g
CCOc1ncc(C)c2c1[C@H](c1ccc(C#N)cc1OC)C(C(N)=O)=C(C)N2  central volume (Vc/F) (population PK model; patients; oral, dose not given): 113 L
C[C@@H]1OC(=O)NN=C1c1ccc(-c2ccc(F)cc2)c(C(F)(F)F)c1  patients with adverse event (phase I trial, refers to: Fatigue all grades; human patients; 20 mg loading then 1 mg daily): 100%
CC(C)C[C@H](NC(=O)[C@H](CCCCN)NC(=O)OCC1c2ccccc2-c2ccccc21)C(=O)N[C@H](C(=O)N[C@@H](Cc1ccccc1)C(=O)N[C@@H](Cc1ccccc1)C(=O)N[C@@H](CCCCN)C(=O)NCC(=O)N[C@@H](Cc1ccccc1)C(=O)N[C@@H](C)C(=O)N[C@@H](Cc1c[nH]c2ccccc12)C(=O)N[C@@H](CC(N)=O)C(=O)N[C@H](C(=O)N[C@H]1CSSC[C@@H](C(=O)N[C@@H](Cc2c[nH]cn2)C(=O)N[C@@H](CCCNC(=N)N)C(=O)N[C@@H](CCCNC(=N)N)C(=O)N[C@@H](C)C(=O)N[C@@H](CC(N)=O)C(N)=O)NC(=O)[C@H](C(C)C)NC(=O)[C@H](CCCNC(=N)N)NC(=O)[C@H](C(C)C)NC(=O)CNC(=O)[C@H](CC(N)=O)NC(=O)[C@H](CCCNC(=N)N)NC(=O)[C@H](Cc2ccc(O)cc2)NC(=O)[C@H](C(C)C)NC1=O)C(C)C)C(C)C  calcium (ICR mouse, blood; intramammary, 10 mg/kg, day 5, 3 d dosing): 1.34 ± 0.02 mmol/L
COc1ccc2nc3cc(Cl)ccc3c(Nc3cc(CN4CCCC4)c(O)c(CN4CCCC4)c3)c2n1  basophils (mouse, blood; intraperitoneal, 57 mg/kg): 0.8%
O=S(=O)(Nc1ccccc1)c1ccc(NC(=S)Nc2ccccc2)cc1  haemoglobin (female mouse, blood; oral, 80 mg/kg daily, 14 days): 13.7 g/dL
CCC(C)(C)c1cc(-n2nc3ccccc3n2)c(O)c(C(C)(C)CC)c1  time to 80% permeation (reconstructed human epidermis EpiSkin; sunscreen extract): 1 h
C[C@H]1CN(c2n[nH]c3nc(N[C@H]4CC[C@H](NS(=O)(=O)CCC(F)(F)F)CC4)ncc23)CCO1  relative abundance (UBR4 (Homo sapiens, UniProt Q5T4S7); inhibitor, Kinobeads competition profiling; 0.8 µM; relative to: vehicle): 1.12
CCCCCCCCCCCCCCCC(=O)N[C@@H](CCC(=O)NCCCC[C@H](NC(=O)[C@H](CC(=O)O)NC(=O)[C@H](CO)NC(=O)[C@@H](NC(=O)[C@H](Cc1ccccc1)NC(=O)[C@@H](NC(=O)CNC(=O)[C@H](CCC(N)=O)NC(=O)[C@H](CO)NC(=O)[C@@H](N)Cc1c[nH]cn1)[C@@H](C)O)[C@@H](C)O)C(=O)N[C@@H](CO)C(=O)N[C@@H](CCC(=O)O)C(=O)N[C@@H](Cc1ccc(O)cc1)C(=O)N[C@@H](CC(C)C)C(=O)N[C@@H](CC(=O)O)C(=O)N[C@@H](CO)C(=O)N[C@@H](CCC(=O)O)C(=O)N[C@@H](CCCNC(=N)N)C(=O)N[C@@H](C)C(=O)N[C@@H](CCCNC(=N)N)C(=O)N[C@@H](CC(=O)O)C(=O)N[C@@H](Cc1ccccc1)C(=O)N[C@H](C(=O)N[C@@H](C)C(=O)N[C@@H](Cc1c[nH]c2ccccc12)C(=O)N[C@@H](CC(C)C)C(=O)N[C@@H](CCC(=O)O)C(=O)N[C@@H](C)C(=O)NCC(=O)NCC(=O)O)C(C)C)C(=O)O  atrial fibrillation (human, CrCl ≥ 90 mL/min; sc, 100 µg single dose): 0%
O=c1cc(-c2ccc(O)c(O)c2)oc2cc(O)cc(O)c12  faecal excreted amount (male Sprague-Dawley rat, lean; oral, 100 mg/kg of neohesperidin, 24 to 36 h): 4.05 ± 2.47 ng
CC(C)(c1ccc(O)cc1)c1ccc(O)cc1  uptake (zebrafish AB embryos and larvae; 24 h): < 5%
COc1ncccc1-c1cnn2ccc(N3CCN(C(=O)OC(C)C)CC3)nc12  drug concentration (mouse nerve ligation model, plasma; oral, 10 mg/kg, 30 min after last dose, repeat dosing day 3): 3.4 µM
COc1ccc(-c2c(-c3ccc(C#N)c(F)c3)nc(N3CCC(N)CC3)n(C)c2=O)cc1F  treatment-related adverse event incidence (refers to: Constipation; human patients; oral, dose not given, grade 3 to 4, dose escalation, NG): 0%
CC(C)[C@@H]1NC(=O)CNC(=O)[C@H](CC(N)=O)NC(=O)[C@H](CCCNC(=N)N)NC(=O)[C@H](Cc2ccc(O)cc2)NC(=O)[C@H](C(C)C)NC(=O)[C@@H](NC(=O)[C@@H](NC(=O)[C@H](CC(N)=O)NC(=O)[C@H](Cc2c[nH]c3ccccc23)NC(=O)[C@H](C)NC(=O)[C@H](Cc2ccccc2)NC(=O)CN)C(C)C)CSSC[C@@H](C(=O)N[C@@H](Cc2cnc[nH]2)C(=O)N[C@@H](CCCNC(=N)N)C(=O)N[C@@H](CCCNC(=N)N)C(=O)N[C@@H](C)C(=O)N[C@@H](CC(N)=O)C(N)=O)NC(=O)[C@H](C(C)C)NC(=O)[C@H](CCCNC(=N)N)NC1=O  peptide remaining (mouse mammary gland homogenate 50 mg/mL; 24.00 h, 37 °C): 10.2% and 18.6% and 14.8%
C[C@]1(O)C[C@@](N)(c2ccc(-c3nc4n(c3-c3ccccc3)COc3ccncc3-4)cc2)C1  patients with grade ≥3 Anemia TEAE (human, advanced or metastatic solid tumours; dose not given, all patients): 5.9%
C[C@]1(CO)Cc2ncn(-c3ccc(C#N)c(Cl)c3)c2C(=O)O1  change in serum potassium (healthy men, serum; dose not given, mean, generally within this range; relative to: baseline): 5 to 6%
CC(C)(O)c1cc(Nc2cc(Oc3cn(C4CC4)nc3C3CCOCC3)ccn2)ccn1  treatment-related adverse events (Diarrhea; patients with advanced cancer, Japanese cohort; oral, dose not given, grade ≥3): 0%
CC(Nc1nc(N2CCN(CCN)CC2)nc2ccccc12)c1ccccc1 (centres unmarked)  maximum response (Vero-E6; CellTiter-Glo ATP; 72 h, second round 5-point; relative to: DMSO 0%, hyamine -100%, more negative, more toxic): -12.4%
O=c1nc(NO)ccn1[C@@H]1O[C@H](CO)[C@@H](O)[C@H]1O  long-term stability (rat maternal blood dialysate; 1000 ng/mL, more than 4 weeks, -20 °C, high concentration, with: molnupiravir 250 ng/mL): 104 ± 7.63%
O=C(Nc1ccccc1)C1CCN(C(=O)Oc2cccnc2)CC1  adverse event Rash (healthy women; oral, 60 mg, 7 days): 0%
CC(C)Nc1ccnc(Nc2cccc(-c3cccnc3)c2)n1  blood chemistry (refers to: total protein; mouse, blood; intraperitoneal, 3 mg/kg): 5.1 g/dL
O=C(c1ccc(F)c(F)c1Nc1ccc(I)cc1F)N1CC(O)([C@@H]2CCCCN2)C1  onset day of second chorioretinopathy DLT (human; oral, 1.33 mg/kg): 22 days
CC(=O)c1c(C)c2cnc(Nc3ccc(C4CCN(CCS(C)(=O)=O)CC4)cn3)nc2n(C2CCCC2)c1=O  patients with anaemia (HR+/HER2- advanced breast cancer patients; oral, dose not given, grade 3/4,, sample A patients): 4.9%
O=C(O)CCCOc1ccc(F)cc1-c1cc(-c2ccccc2C(F)(F)F)n(-c2ccccc2)n1  serum enzyme activity (refers to: ALT; Crl:CD(SD) rats, female, serum; iv, 25 µg/kg, 14 days): 26.6 ± 3.5 U/L
CC1(C)C(C=C(Cl)Cl)C1C(=O)OC(C#N)c1ccc(F)c(Oc2ccccc2)c1 (centres unmarked)  enzyme contribution to clearance (refers to: CYP2C8; human, age 5 years, recombinant human CYP2C8; 0.1 µM): 0.64%
CCC[C@@](N)(CO)CCc1ccc(OCCCCCC(C)C)cc1  Tmax (male hound dog, plasma; oral, 2.5 mg/kg, capsule, median): 5 h
COc1ncnn2ccc(-c3cnc4nc(C)n(Cc5nnc([C@@H](C)F)o5)c4c3)c12  incidence of Hyponatremia (human patients; oral, dose not given, grade 1 adverse drug reaction): 7.1%
Cn1nc(NS(C)(=O)=O)c2c(Cl)ccc(-n3c([C@H](Cc4cc(F)cc(F)c4)NC(=O)Cn4nc(C(F)F)c5c4C(F)(F)[C@@H]4C[C@H]54)nc4nc(OCCC(F)(F)F)ccc4c3=O)c21  participants with graded LDL-C increases (human; dose not given): 25%
Clc1ccc(-c2ccccc2)cc1  serum triglycerides (rat Sprague-Dawley female, serum; inhalation, 23 µg/rat, 1 h): 41 ± 4 mg/dL
CC(=O)O[C@@H]1CC[C@@]2(C)[C@@H](CC[C@]3(C)[C@@H]2C(=O)C=C2[C@@H]4[C@@H](C)[C@H](C)CC[C@]4(C)CC[C@]23C)[C@@]1(C)C(=O)O  terminal elimination rate constant (non-compartmental analysis; female Wistar rats, plasma; oral gavage, 1 mg/kg): 0.07 h⁻¹
COc1ccc(C[C@@H]2NC(=O)[C@H]([C@@H](C)O)NC(=O)[C@@H]3[C@@H]4CCN3C(=O)[C@@H]3Cc5cn(c6ccc(F)cc56)CCCCCCN(Cc5ccc(cc5)CCNC(=O)[C@]5(C)CCCN5C2=O)C(=O)CCC(=O)N[C@@H](C)C(=O)N[C@H](CNC(=O)CCCCC[N+](C)(C)C)C(=O)N[C@@H](Cc2cccc(c2)CNC(=O)CO4)C(=O)N3)cc1  participants with adverse event (refers to: Rhinitis; humans; concentration not given, Study-001): 2%
COc1cc2c(Oc3ccc4[nH]c(C)cc4c3F)ccnc2cc1OCC1(N)CC1  grade 3 Dizzy (paediatric recurrent refractory sarcoma; concentration not given, whole group): 0%
CO[C@H]1C[C@@H]2CC[C@@H](C)[C@@](O)(O2)C(=O)C(=O)N2CCCC[C@H]2C(=O)O[C@H]([C@H](C)C[C@@H]2CC[C@@H](OC(=O)NCCOCCOCCOCCOCCOCCOCCOCCOCCC(=O)N3CCc4cc(Cn5nc(-c6ccc7oc(N)nc7c6)c6c(N)ncnc65)ccc4C3)[C@H](OC)C2)C[C@@H](O)[C@H](C)/C=C(\C)[C@@H](O)[C@@H](OC)C(=O)[C@H](C)C[C@H](C)/C=C/C=C/C=C/1C  TRAE incidence (phase 1 dose escalation, refers to: fatigue; advanced solid tumour patients; intravenous, 6 mg weekly, grade ≥3): 8.3%
CN1CC[C@@H](c2c(O)cc(O)c3c(=O)cc(-c4ccc(C(F)(F)F)cc4Cl)oc23)[C@@H]1CO  patients with adverse event (refers to: Diarrhea; AML; oral, 100 mg, intermittent dosing): 33.3%
CN[C@@H](C)C(=O)N[C@H]1CN(S(=O)(=O)c2cccc(S(=O)(=O)N3CC[C@H]4CC[C@@H](C(=O)NC(c5ccccc5)c5ccccc5)N4C(=O)[C@@H](NC(=O)[C@H](C)NC)C3)c2)CC[C@H]2CC[C@@H](C(=O)NC(c3ccccc3)c3ccccc3)N2C1=O  treatment-related AST elevation incidence (patients with advanced solid tumours; 30 mg, phase I monotherapy): 33.3%

Repeated from above:
CC(=O)c1c(C)c2cnc(Nc3ccc(C4CCN(CCS(C)(=O)=O)CC4)cn3)nc2n(C2CCCC2)c1=O  patients with anaemia (HR+/HER2- advanced breast cancer patients; oral, dose not given, grade 3/4,, sample A patients): 4.9%
C[C@@H]1NC(=O)[C@H](CCCCNC(=O)CO/N=C/C(=O)NCCCC[C@@H]2NC(=O)[C@@H](Cc3ccccc3)NC(=O)[C@H](CC(=O)O)NC(=O)CNC(=O)[C@H](CCCNC(=N)N)NC2=O)NC(=O)CNC(=O)[C@@H]2CCCN2C(=O)[C@H](CCCCNC(=O)CO/N=C/C(=O)NCCCC[C@@H]2NC(=O)[C@@H](Cc3ccccc3)NC(=O)[C@H](CC(=O)O)NC(=O)CNC(=O)[C@H](CCCNC(=N)N)NC2=O)NC(=O)[C@H](CCCCNC(=O)[C@H](CCCCN)NC(=O)[C@H](Cc2ccccc2)NC(=O)CNC(=O)CN2CCCNCCNCCCNCC2)NC(=O)[C@H](CCCCNC(=O)CO/N=C/C(=O)NCCCC[C@@H]2NC(=O)[C@@H](Cc3ccccc3)NC(=O)[C@H](CC(=O)O)NC(=O)CNC(=O)[C@H](CCCNC(=N)N)NC2=O)NC(=O)CNC(=O)[C@@H]2CCCN2C(=O)[C@H](CCCCNC(=O)CO/N=C/C(=O)NCCCC[C@@H]2NC(=O)[C@@H](Cc3ccccc3)NC(=O)[C@H](CC(=O)O)NC(=O)CNC(=O)[C@H](CCCNC(=N)N)NC2=O)NC1=O [copper-64 labelled]  tissue uptake (normal mice, liver; intravenous, 0.74 MBq, 3 h post-injection): 38.1 ± 3.54 %ID/g
O=c1cc(-c2ccc(O)c(O)c2)oc2cc(O)cc(O)c12  faecal excreted amount (male Sprague-Dawley rat, lean; oral, 100 mg/kg of neohesperidin, 24 to 36 h): 4.05 ± 2.47 ng
